Measured values collected from several papers.
± marks the error that the study gave.

C=C(C)C(=O)NCCCCCCOCc1cn(CCCCCCNC(=O)C(=C)C)nn1  IC50 (L929; viability, alamarBlue; 3 days): > 50000 nM
O=C1C2=Nc3ccccc3CN2C(=S)N1[C@H]1CCCc2ccccc21  IC50 (CEM/ADR5000 (P-gp overexpressing, multidrug resistant); cell viability, resazurin; 72 h): 12900 ± 3560 nM
COc1ccc(NC(=O)c2ccc3[nH]c(-c4ccc(N(C)C)cc4)nc3c2)cn1  IC50 (ZR-75-1; cell growth, CellTiter-Glo): 9680 nM
CN1CCC(N[C@@H]2CCc3[nH]c4c(C(N)=O)ccc(-c5ccccc5Cl)c4c3C2)CC1  IC50 (RBE; cell growth or viability): 0.22 nM
Cc1ccc([N+](=O)[O-])cc1S(=O)(=O)N(C)/N=C/c1cnc2ccc(Br)cn12  IC50 (A498; MTS; NCI60 panel): 27 nM
C/C(=N\Nc1ncnc2sc3c(c12)CCCC3)c1cc(O)ccc1O  IC50 (U2932; cell growth or viability, CCK-8): 159 nM
O=C1C=CC(=O)N1CCCCOCc1cn(CCCCN2C(=O)C=CC2=O)nn1  IC50 (L929; cell growth or viability; 72 h): 2200 nM
CN(C)CCNC(=O)c1cccn2c(=O)c3cc4ccccc4cc3nc12  IC50 (THLE3; cell growth or viability, imaging; 72 h): 64600 nM
CCOc1cncc(-c2ccc(NC(=O)C3(c4ccnc(NS(=O)(=O)C5CC5)n4)CCOCC3)nc2)n1  IC50 (KM-H2; cell growth or viability, ATP luminescence; 72 h): 51 nM
C=CC(=O)Nc1cc(Nc2nccc(-c3cn(C)c4ccccc34)n2)c(OC)cc1N(C)CCN(C)C  IC50 (Ba/F3 EGFR 19Del/T790M/C797S BBT-176-resistant BR1; cell growth; 72 h): > 1000 nM
COC(=O)N1c2ccc3c(nc(Cc4ccccc4)n3[C@@H]3CCC[C@@H](C(=O)O)C3)c2CC[C@@H]1C  IC50 (HCC38; cell growth or viability, ATP luminescence; 10 days): 830 nM
CCn1nc(Cl)c2c1-c1cnc(N)c(c1)O[C@H](C)c1cc(F)ccc1-c1nn(C)cc1C2  IC50 (A-431; cell growth or viability): 3650 nM
CCCN1C(=O)C2=Nc3ccccc3CN2C1=S  IC50 (CEM/ADR5000 (P-gp overexpressing, multidrug resistant); cell viability, resazurin; 72 h): 63900 ± 30300 nM
C=CC(=O)N1CCCC(n2c(=O)c3ncccc3n(Cc3ccc(Oc4ccccc4)cc3)c2=O)C1 (centres unmarked)  IC50 (U2932; cell growth or viability, MTT; 72 h): 10000 nM
CNS(=O)(=O)Nc1nccc(Cc2c(C)c3ccc(Oc4ncccc4F)cc3oc2=O)c1F  IC50 (CA46; cell viability; 7 days): > 1000 nM
C=CC(=O)NCCCCCCCCCCOCc1cn(CCCCCCCCCCNC(=O)C=C)nn1  IC50 (L929; viability, alamarBlue; 3 days): > 50000 nM
CC(C)c1ccc(N(C)c2ccc3c(c2)OCC[C@H]3CNc2cnccc2C(=O)O)cc1  IC50 (HT-1376; cell growth or viability, ATP luminescence; 7 days): 36.3 nM

Excerpt of the above:
C=CC(=O)N1CCCC(n2c(=O)c3ncccc3n(Cc3ccc(Oc4ccccc4)cc3)c2=O)C1 (centres unmarked)  IC50 (U2932; cell growth or viability, MTT; 72 h): 10000 nM
CCCN1C(=O)C2=Nc3ccccc3CN2C1=S  IC50 (CEM/ADR5000 (P-gp overexpressing, multidrug resistant); cell viability, resazurin; 72 h): 63900 ± 30300 nM
